Experimental data gathered from unrelated publications.
Parts stem from different laboratories: compare values within a part only.

Block 1 — technique: RNA Bind-n-Seq; form: RNA; matrix: in vitro; concentration: 200 nM; setting: whole 134-nt RNA, ends assumed; added: 150 mM KCl; baseline: input library; direction: higher = stronger binding
Target: Ras GTPase-activating protein-binding protein 1, full length (G3BP1, Homo sapiens, UniProt Q13283)
Sequence of UniProt Q13283 (whole entry, looked up): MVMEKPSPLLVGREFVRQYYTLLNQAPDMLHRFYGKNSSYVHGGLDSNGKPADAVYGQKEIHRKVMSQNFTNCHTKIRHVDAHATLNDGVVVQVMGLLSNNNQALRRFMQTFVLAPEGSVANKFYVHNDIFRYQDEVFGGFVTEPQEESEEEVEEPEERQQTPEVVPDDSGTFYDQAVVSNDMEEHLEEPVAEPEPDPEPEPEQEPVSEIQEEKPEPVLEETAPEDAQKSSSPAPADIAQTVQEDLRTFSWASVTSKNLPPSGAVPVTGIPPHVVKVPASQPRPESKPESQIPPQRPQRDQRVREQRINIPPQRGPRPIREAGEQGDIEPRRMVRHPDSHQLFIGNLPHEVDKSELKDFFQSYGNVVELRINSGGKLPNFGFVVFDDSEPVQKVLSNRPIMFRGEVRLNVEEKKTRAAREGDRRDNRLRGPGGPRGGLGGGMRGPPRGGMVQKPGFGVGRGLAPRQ
All sequences stand within: GGGAGUUCUACAGUCCGACGAUC … UGGAAUUCUCGGGUGUCAAGG
Strand | log2 enrichment
GAGCAAAGAGCCAUUCAGCUUCAGUCUUUACAUACCAUGAAUAAAACAUUAAAACAUCAUAUGGAGAAGUUUACAUGGUGAUUGUUCACC | -0.599
CACAGACAACACGCACCCACACAGACACAGAGGGAAGGGGUUGGGAUGGGGACAGGGUGCACAGCAGGGCGGGGUACGACCCCAGCCCCU | 1.84
UCCUAGUAUUCUGGCCGUUCAGAGAUCUGCAAUCCUCAAGAAGCAGCAACAGCAGCAGCAGCAACAACAACAUCAAGCCUCAUCUAAUAG | 0.26
UAACUUUAGAGGAGGAUCUGAUGGAUAUGGCAGUGGACGUGGAUUUGGGGAUGGCUAUAAUGGGUACGGAGGAGGACCUGGAGGUGGCAA | 0.213
UCCUGUGCUACACAUCGUAUGUACCGAAUCGGUUUUUUGGGUUUUUUGGUUUUUUGGGGAAAGUAUUAUGUUACGCCGUUCGGAUCUGCA | -0.888
CCAGAGCCAGAGAGCUUGGGCCCUGGGACGCCUGGGUUCCCCGAGCAGGAGGAAGACGAACUUCACCGCACCCUGGGCGUGGAGCGGUUU | -0.55
CCUCAAGUCCUGUGCUACACAUCGUAUGUACCGAAUCGGCGGGGCGGCGGGGAAAGUAUUAUGUUACGCCGUUCGGAUCUGCACUUCCAG | 0.267
CUGUGCUACACAUCGUAUGUACCGAAUCGGCCCCCCCGGGCCCCCCCGGGGCCCCCCCGGGGAAAGUAUUAUGUUACGCCGUUCGGAUCU | -1.28
UGGCAGGAAAGAGUUCCUAGAGAGAGAAGACAAAGACAGUCUGUGUUGCAAAAGAAGCCCAAGGCUGAAGAUUUAAGAACUGAAUGUGCA | -0.66

Block 2 — technique: protein binding microarray; form: double-stranded DNA, one strand shown; matrix: in vitro; concentration: not given; baseline: not given; direction: higher = stronger binding
Target: Histone acetyltransferase KAT6A, both winged helices, GST fusion (KAT6A, Homo sapiens, UniProt Q92794, residues 1-181)
Setting: 8-mer, flanks averaged, mean of 2 arrays, mostly near background
Residues (chain): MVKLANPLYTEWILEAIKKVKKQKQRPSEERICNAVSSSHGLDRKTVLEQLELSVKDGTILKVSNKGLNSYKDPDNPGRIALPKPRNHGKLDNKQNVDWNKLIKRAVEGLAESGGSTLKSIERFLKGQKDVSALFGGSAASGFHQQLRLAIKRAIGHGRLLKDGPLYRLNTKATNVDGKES
Strand | E-score
AGTATGCC | -0.0289
GAAACGCA | 0.143
GCGTTCCC | 0.229
GGCCACCA | -0.0698
CCTGCACA | -0.227
GAAGACGA | -0.0353
ACCTATAG | -0.185
ACTGCAGT | -0.0969
CACAACCG | 0.0114
ACGGAGGG | 0.0247
CTAGTACC | -0.0105
ACGTCTCA | -0.0994
ACAATGCT | -0.155
GCGGAACA | 0.224
TACACCGA | 0.0538
AGCTCCCC | -0.153
ACTGCGCC | 0.219

Block 3 — technique: RNA Bind-n-Seq; form: RNA; matrix: in vitro; concentration: 365 nM; baseline: no-protein control; direction: higher = stronger binding
Target: RNA binding protein fox-1 homolog 2, RRM domain, GST-SBP tag (RBFOX2, Homo sapiens, UniProt O43251-10, residues 100-194)
Setting: natural RNA segment, single round, ends assumed
All sequences stand within: GGGAGUUCUACAGUCCGACGAUC … UGGAAUUCUCGGGUGCCAA
Construct (chain): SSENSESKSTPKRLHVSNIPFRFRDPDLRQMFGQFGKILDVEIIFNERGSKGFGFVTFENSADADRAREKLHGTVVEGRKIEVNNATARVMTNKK
Strand | RBNS enrichment (R)
GUUACUCUUUGUUCAGUAAUGCACUUUAUUUUAUUGUCCAAAGAGAGUCAAGCUAAAGCUACCACCUUGGGGUGAGCCCUACAGAAGGUUCAGACCCGGGCAGCUCAGCU | 1.2
GGUGGGCCUCUUGCUUGUUGUCUCCUGUCUCCUCAAAUGGCUGAAAACUUGGAGGGUCUCGGUUGUUUUCCAUGCCUGGCCCCUCACAGCAGCGAGGCCACUGAAGAGCA | 0.38
UGCUUCAAGAUGUCAGAAAGUCAAGUUCAGCUAAGAGACACCCAGGUCCCCAGCUUGCCCUGAGCAGCCCUUCAGGGCUUCUGGUUCCUUCUGCCGCCCUUCCUGAGACC | 0.289
AACUUCUCUCAGCAGAGAGUACCCAUUCUUCGAGUUCAAAGCACAAUUUUAAACAUGUAAAAUGGAUAUAUAAUUUGCCAAAGGUAAUUAAUUUAUUCUUUUUUUCUUAA | 0.409
GUCCAAGUGUGCUCUCCUUUCAUACAGUUUCCAUGGUGUGAGUGCUUUACUGAAGAUCUGUUUCUUUUGUACUCUGACUACACAUGACCCAAUUAUAUUCUAAUGUGAAA | 0.342
AGCUGGGGCCUCUGAAGGGAUUCCUCACUGUGGGCAGCUGCCCUGAGCUUCAGGCAGCAGUGUUUAUCUCUGGCCAGUUGUCUGGUUUCCAUGUAUUCUAGGCCAGGUAG | 0.303
ACUACUCUCAUUCAGGAUUCUUGCUCCCAUGCUGCUGUCCCUUCAGGCUCACAUGCACAGGAAUGCUACAUGAUGGCCAGCUGCUUCCCUCCUUGGUUAUCAUCCACUGC | 0.659
GCUUUCAGUACUCGUGUUAAUAUGUUUCUAUGGCAACUCUGAGGUCAGUGGUUUAGAAAUGAGAUACCAGUGUUAAUGAAAAGUGUGUGCUCUUUGCUUUUGCAUGGCUU | 1.24

Block 4 — technique: protein-binding microarray; form: double-stranded DNA, one strand shown; matrix: in vitro; concentration: not given; direction: higher = stronger binding
Target: Protein C-ets-1 (ETS1, Homo sapiens, UniProt P14921, residues 1-441, K379A, full length assumed)
Setting: k-mer, scored over probes, only values ≥0.25
Residues (chain): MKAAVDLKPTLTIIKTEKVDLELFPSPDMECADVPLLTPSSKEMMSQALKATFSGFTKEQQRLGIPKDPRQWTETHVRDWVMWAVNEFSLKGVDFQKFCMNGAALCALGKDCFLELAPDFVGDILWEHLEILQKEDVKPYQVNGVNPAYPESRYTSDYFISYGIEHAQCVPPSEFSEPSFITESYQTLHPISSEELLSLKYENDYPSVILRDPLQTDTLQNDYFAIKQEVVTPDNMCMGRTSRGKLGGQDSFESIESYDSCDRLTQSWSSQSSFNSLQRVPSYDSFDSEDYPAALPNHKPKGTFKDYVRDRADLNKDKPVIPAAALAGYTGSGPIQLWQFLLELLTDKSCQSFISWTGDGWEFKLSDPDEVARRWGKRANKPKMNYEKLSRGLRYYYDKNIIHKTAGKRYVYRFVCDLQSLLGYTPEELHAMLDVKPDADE
Strand | E-score
CGGTTGCA | 0.264
CGGTCGTA | 0.297
GTCCGACA | 0.281
CCGGAGCA | 0.297
CACCACTC | 0.255
ATCCGGGG | 0.316
ATACAGAC | 0.26
ATTAACCC | 0.253
ACATCATA | 0.287
CCGACAAA | 0.289
TAATTATA | 0.297
CATGATAC | 0.254
CGTTACAG | 0.253
CGCCGGCG | 0.344
GGTCCGGA | 0.282
CATTCCCG | 0.273
AATTACAG | 0.261
ACATTACC | 0.257
ACATTTCC | 0.307
ACGATGTA | 0.334
ATACAAAC | 0.281

A few entries again (block 4):
Strand | E-score
GTCCGACA | 0.281
CATTCCCG | 0.273
CCGGAGCA | 0.297
ACATTTCC | 0.307
CCGACAAA | 0.289
CATGATAC | 0.254
ACATCATA | 0.287
ACGATGTA | 0.334
